Experimental data of several laboratories.
Protocols differ between the studies behind these lines. ± gives the spread as reported.

| Structure (SMILES) | target or system | assay | system | setting | how to read | endpoint | result |
| --- | --- | --- | --- | --- | --- | --- | --- |
| CN[C@H]1CC[C@@H](c2ccc(Cl)c(Cl)c2)c2ccccc21 | – | – | CD-1 mouse, male, lung | intraperitoneal, 1 mg/kg | – | elimination rate constant | 5.78e-05 s⁻¹ |
| N#C[C@@]12C[C@@H]1[C@@H](n1cnc3c(NC4CCCC4)nc(I)nc31)[C@H](O)[C@@H]2O | – | – | male C57BL/6J mice | intraperitoneal, 1 3 mg/kg | – | tolerability | not toxic |
| CC(=O)c1c(C)c2cnc(Nc3ccc(C4CCN(CCS(C)(=O)=O)CC4)cn3)nc2n(C2CCCC2)c1=O | – | – | human, dose-escalation trial, plasma | oral, 100 mg twice daily, day 21, multiple doses | – | AUC(0-t) | 3440 ng·h/mL |
| COc1ccccc1N1CCN(CCCCNC(=O)c2ccc3ccccc3c2)CC1 | Plasmodium falciparum | – | Dd2 | – | – | IC50 | 10 µM |
| O=S(=O)(Nc1ccccc1)c1ccc(NC(=S)Nc2ccccc2)cc1 | – | – | female mouse, blood | oral, 20 mg/kg daily, 14 days | – | haematocrit | 42.4% |
| COc1ccc(-c2c(-c3ccc(C#N)c(F)c3)nc(N3CCC(N)CC3)n(C)c2=O)cc1F | – | item: Gout | human patients | oral, 60 mg, dose expansion | – | serious adverse event incidence | 0% |
| CC(C)[C@@H]1NC(=O)CNC(=O)[C@H](CC(N)=O)NC(=O)[C@H](CCCNC(=N)N)NC(=O)[C@H](Cc2ccc(O)cc2)NC(=O)[C@H](C(C)C)NC(=O)[C@@H](NC(=O)[C@@H](NC(=O)[C@H](CC(N)=O)NC(=O)[C@H](Cc2c[nH]c3ccccc23)NC(=O)[C@H](C)NC(=O)[C@H](Cc2ccccc2)NC(=O)CN)C(C)C)CSSC[C@@H](C(=O)N[C@@H](Cc2cnc[nH]2)C(=O)N[C@@H](CCCNC(=N)N)C(=O)N[C@@H](CCCNC(=N)N)C(=O)N[C@@H](C)C(=O)N[C@@H](CC(N)=O)C(N)=O)NC(=O)[C@H](C(C)C)NC(=O)[C@H](CCCNC(=N)N)NC1=O | – | – | ICR mice, blood | intraperitoneal, 10 mg/kg, day 5 | – | eosinophils | 2.22 ± 0.11% |
| Cn1cc(-c2nc(N[C@@H]3CCCC[C@@H]3N)c(F)c3c2C(=O)NC3)cn1 | – | item: Retinal haemorrhage | patients with relapsed or refractory AML | oral, dose not given, all doses | – | hemorrhagic adverse events | 7% |
| CCc1ccc(CC/C=C/c2ccc3c(c2)C(=O)CC3)cc1 | – | – | Sprague-Dawley rat, male, serum | oral, 450 mg/kg/day, 14 days | – | chloride | 104 mM |
| C=CCNc1c(O)cc2c(O)c1C[C@@H](C)C[C@H](OC)[C@H](O)[C@@H](C)/C=C(\C)[C@H](OC(N)=O)[C@@H](OC)/C=C\C=C(/C)C(=O)N2 | – | – | unresectable or metastatic STS, GIST, other | intravenous, 300 mg/m^2 | – | patients with diarrhoea TEAE | 0% |
| C[C@@H](NC(=O)N1C(=O)[C@H](Cc2ccnc(N)c2)[C@H]1C(=O)O)C1CCCCC1 | – | – | healthy Chinese adults | continuous intravenous infusion, 2.25 mg/kg/h, 5.0 days | – | decreased WBC | 0% |
| O=S(=O)([O-])C(F)(F)C(F)(F)C(F)(F)C(F)(F)C(F)(F)C(F)(F)C(F)(F)C(F)(F)F.[K+] | – | – | male C57BL/6J mice, EtOH-fed, plasma | dose not given | reference: efavirenz and pair-fed | triglyceride level | increased |
| CN(C(=O)n1cnc(-c2ccc[n+]([O-])c2)c1)C1CCCCC1 | – | – | Wistar rat, pons | oral, 10 mg/kg, 4 h, single dose | – | concentration | 122 ± 34.9 ng/g |
| C[C@]1(CO)Cc2ncn(-c3ccc(C#N)c(Cl)c3)c2C(=O)O1 | – | – | human | concentration not given, European single ascending dose | – | TEAE incidence | 27.1% |
| Clc1ccc(Cl)c(-c2ccccc2Cl)c1 | – | – | fresh water | 20 °C | – | log K(PDMS-water) | 4.97 ± 0.05 |
| CP(=O)(O)CCCN | Plasmodium falciparum | – | 7G8 | – | – | IC50 | 3.16 µM |
| O[C@H]1CCCN[C@@H]1CCCn1cnc2c(Cl)c(Cl)ccc21 | – | – | healthy human | oral, 150 mg multiple doses | – | diarrhoea prevalence | 29.2% |
| CCN1[C@@H](C(=O)NC23CCC(C(=O)O)(CC2)CC3)[C@H](c2cccc(Cl)c2F)[C@]2(C(=O)Nc3cc(Cl)ccc32)C12CCCCC2 | – | – | patients with advanced solid tumours | oral, 100 mg | – | Embolism incidence | 0% |
| COc1cc2c(Oc3ccc4[nH]c(C)cc4c3F)ccnc2cc1OCC1(N)CC1 | – | – | paediatric recurrent refractory sarcoma | concentration not given, whole group | – | grade 3 Vomiting | 0% |
| O=C(Nc1ccccc1)C1CCN(C(=O)Oc2cccnc2)CC1 | – | psychotropic effects VAS | healthy women | 100 mg | reference: pre-dose baseline, direction not given | change in Anxious score | -0.5 |

| Structure (SMILES) | target or system | assay | system | setting | how to read | endpoint | result |
| --- | --- | --- | --- | --- | --- | --- | --- |
| CO[C@H]1C[C@@H]2CC[C@@H](C)[C@@](O)(O2)C(=O)C(=O)N2CCCC[C@H]2C(=O)O[C@H]([C@H](C)C[C@@H]2CC[C@@H](OC(=O)NCCOCCOCCOCCOCCOCCOCCOCCOCCC(=O)N3CCc4cc(Cn5nc(-c6ccc7oc(N)nc7c6)c6c(N)ncnc65)ccc4C3)[C@H](OC)C2)C[C@@H](O)[C@H](C)/C=C(\C)[C@@H](O)[C@@H](OC)C(=O)[C@H](C)C[C@H](C)/C=C/C=C/C=C/1C | – | phase 1 dose escalation, item: neutropenia | advanced solid tumour patients | intravenous, 8 mg weekly, any grade | – | dose-reducing adverse events | 0% |
| CN1CCN(c2ccc(Nc3nccc(-c4ccc(C#N)cc4)n3)cc2C(F)(F)F)CC1 | – | – | zebrafish embryos | 50 µM, 5 d | – | toxicity | 0% |
| Clc1cc(Cl)c(-c2ccccc2)cc1Cl | – | – | polyethylene-water partitioning | PCB compilation | reference: maximum over minimum K | literature range factor | 1.2 |
| CC(C)C[C@@H]1NC(=O)CNC(=O)[C@H](CC(N)=O)NC(=O)[C@H](CCCNC(=N)N)NC(=O)[C@H]([C@@H](C)O)NC(=O)[C@@H]2CSSC[C@@H]3NC(=O)[C@H]([C@@H](C)O)NC(=O)CNC(=O)CNC(=O)[C@H](C(C)C)NC(=O)[C@@H]4CSSC[C@H](NC(=O)[C@H]([C@@H](C)O)NC(=O)[C@H](CSSC[C@H](NC(=O)[C@H](C(C)C)NC(=O)[C@@H]5CCCN5C1=O)C(=O)NCC(=O)N[C@@H](CCC(=O)O)C(=O)N[C@@H]([C@@H](C)O)C(=O)N4)NC(=O)CNC(=O)[C@@H]1CCCN1C(=O)[C@H]([C@@H](C)O)NC(=O)[C@H](CCCCN)NC3=O)C(=O)N[C@@H](CO)C(=O)N[C@@H](Cc1c[nH]c3ccccc13)C(=O)N1CCC[C@H]1C(=O)N[C@@H](C(C)C)C(=O)N2 | – | HPLC | ammonium bicarbonate | 180 µM, 14 days, pH 9.0, 25 °C, deamidation stability | – | remaining peptide | 91.2 ± 0.2% |
| O=C(O)CCC(CP(=O)(O)O)C(=O)O (stereo not shown) | – | – | rat, processed derivatized plasma | 8 µg/mL, 18 h, 10 °C, autosampler stability | reference: nominal concentration | relative error | 0.8% |
| CC/C(=C(\c1ccccc1)c1ccc(OCCN(C)C)cc1)c1ccccc1 | – | – | CD-1 mouse, male, plasma | intraperitoneal, 10 mg/kg | – | elimination rate constant | 1.73e-05 s⁻¹ |
| Clc1nc[n]([Au][PH](c2ccccc2)(c2ccccc2)c2ccccc2)c1Cl | – | – | NCG mouse, plasma | intraperitoneal, 10 mg/kg | – | Vz/F | 0.538 L/kg |
| COc1ccc2nc3cc(Cl)ccc3c(Nc3cc(CN4CCCC4)c(O)c(CN4CCCC4)c3)c2n1 | – | – | mouse, blood | intraperitoneal, 14 mg/kg | – | monocytes | 1.79% |
| Cc1ccc(F)c2cc(C(=O)N[C@@H]3CCC[C@H](N4CC[C@H](N(C)S(C)(=O)=O)C4)C3)[nH]c12 | – | – | CD1 mouse | oral, 30 mg/kg | – | fraction absorbed | 0.7 |
| O=C(O)CCCOc1ccc(F)cc1-c1cc(-c2ccccc2C(F)(F)F)n(-c2ccccc2)n1 | – | item: Eosinophils | Crl:CD(SD) rats, female, blood | iv, 25 µg/kg, 14 days | – | leukocyte differential | 1 ± 0.3% |
| Cc1c(COC(=O)[C@@H]2[C@H](/C=C(\Cl)C(F)(F)F)C2(C)C)cccc1-c1ccccc1 (racemic) | – | – | pooled human liver microsomes | – | – | CLint | 0.0859 mL/min/mg protein |
| COc1ccc2c(c1)CN(C(=O)CCN1CCC(Cc3ccccc3)CC1)CC[S@@+]2[O-] | – | – | female Beagle dogs, chronic AV block, plasma | intravenous, 1 mg/kg, end of 10 min infusion | – | plasma concentration | 829 ± 289 ng/mL |
| c1ccc2c(c1)ccc1cc3c(ccc4ccccc43)cc12 | – | – | fresh water | 12 (unit not given), 20 °C, S30-1 sampler, 30 µm | – | log K(PDMS-water) | 5.36 ± 0.08 |
| CC(C)CC(=O)OC[C@H]1O[C@@](C#N)(c2ccc3c(N)ncnn23)[C@H](O)[C@@H]1O | – | – | Sprague-Dawley rat, male, urine | 80 mg/kg, time not given | reference: dose | recovery in urine | 0.00282% |
| CC(C)C[C@@H]1NC(=O)CNC(=O)[C@H](CC(N)=O)NC(=O)[C@H](CCCNC(=N)N)NC(=O)[C@H]([C@@H](C)O)NC(=O)[C@@H]2CSSC[C@@H]3NC(=O)[C@H]([C@@H](C)O)NC(=O)CNC(=O)CNC(=O)[C@H](C(C)C)NC(=O)[C@@H]4CSSC[C@H](NC(=O)[C@H]([C@@H](C)O)NC(=O)[C@H](CSSC[C@H](NC(=O)[C@H](C(C)C)NC(=O)[C@@H]5CCCN5C1=O)C(=O)NCC(=O)N[C@@H](CCCCN)C(=O)N[C@@H]([C@@H](C)O)C(=O)N4)NC(=O)CNC(=O)[C@@H]1CCCN1C(=O)[C@H]([C@@H](C)O)NC(=O)[C@H](CC(N)=O)NC3=O)C(=O)N[C@@H](CO)C(=O)N[C@@H](Cc1c[nH]c3ccccc13)C(=O)N1CCC[C@H]1C(=O)N[C@@H](C(C)C)C(=O)N2 | – | HPLC | ammonium bicarbonate 0.1 M | 180 µM, 14 days, pH 9.0, 37 °C, deamidation stability | – | remaining peptide | 0% |
| COc1ccnc(C(=O)N[C@H]2COC(=O)[C@H](Cc3ccccc3)[C@@H](OC(=O)C(C)C)[C@H](C)OC2=O)c1OCOC(=O)C(C)C | – | – | field soil | geometric mean normalised, 5 sites | – | DT50 | 9.83 days |
| C[C@]1(O)C[C@@](N)(c2ccc(-c3nc4n(c3-c3ccccc3)COc3ccncc3-4)cc2)C1 | – | – | human, advanced or metastatic solid tumours | 16 mg once daily, dose-response cohort | – | patients with Pruritus TEAE | 0% |
| C=CC(=O)Nc1cc(Nc2nccc(Nc3cc(Cl)c(F)cc3C(C)(C)O)n2)c(OC)cc1N1CC[C@@H](N(C)C)C1 | – | – | human patients | oral, 100 mg, treatment-emergent adverse events | – | patients with lipase increased | 0% |
| c1ccc2c(c1)cc1ccc3cccc4ccc2c1c34 | – | – | polyethylene-water partitioning | PAH compilation | – | literature range of log K | 5.75 to 7.24 log units |
| N=C(N)NCCC[C@@H](NC(=O)[C@@H](N)Cc1ccccc1)C(=O)N[C@@H](Cc1ccccc1)C(=O)N[C@@H](CCCCN)C(N)=O | – | – | early Huntington's disease patients, plasma | subcutaneous, 25 mg daily, day 7, median | – | AUC(0-inf) | 5270 ng·h/mL |

Excerpt of the above:
| Structure (SMILES) | target or system | assay | system | setting | how to read | endpoint | result |
| --- | --- | --- | --- | --- | --- | --- | --- |
| Cc1c(COC(=O)[C@@H]2[C@H](/C=C(\Cl)C(F)(F)F)C2(C)C)cccc1-c1ccccc1 (racemic) | – | – | pooled human liver microsomes | – | – | CLint | 0.0859 mL/min/mg protein |
| Clc1nc[n]([Au][PH](c2ccccc2)(c2ccccc2)c2ccccc2)c1Cl | – | – | NCG mouse, plasma | intraperitoneal, 10 mg/kg | – | Vz/F | 0.538 L/kg |
| Cn1cc(-c2nc(N[C@@H]3CCCC[C@@H]3N)c(F)c3c2C(=O)NC3)cn1 | – | item: Retinal haemorrhage | patients with relapsed or refractory AML | oral, dose not given, all doses | – | hemorrhagic adverse events | 7% |
